# Measured values collected from several papers.
# Protocols differ between the studies behind these lines. ± gives the spread as reported.
SMILES,host,medium,route,dose,time,setting,tissue uptake
N=C(N)NCCC[C@@H]1NC(=O)[C@H](CCCCNC(=O)CCOCCOCCOCCOCCNC(=O)CN2CCN(CC(=O)O)CCN(CC(=O)O)CCN(CC(=O)O)CC2)NC(=O)[C@@H](Cc2ccccc2)NC(=O)[C@H](CC(=O)O)NC(=O)CNC1=O [indium-111 labelled],female athymic nude mice,liver,intravenous,3 µCi,72 h,U-87 MG glioma xenograft,0.3 ± 0.07 %ID/g
N=C(N)NCCC[C@@H]1NC(=O)[C@H](CCCCNC(=O)CCOCCOCCOCCOCCNC(=O)CC[C@H](NC(=O)CCOCCOCCOCCOCCNC(=O)[C@H](CCCCNC(=O)c2ccc(NN)nc2)NC(=O)c2ccc(NN)nc2)C(=O)NCCOCCOCCOCCOCCC(=O)NCCCC[C@@H]2NC(=O)[C@@H](Cc3ccccc3)NC(=O)[C@H](CC(=O)O)NC(=O)CNC(=O)[C@H](CCCNC(=N)N)NC2=O)NC(=O)[C@@H](Cc2ccccc2)NC(=O)[C@H](CC(=O)O)NC(=O)CNC1=O [technetium-99m labelled],female athymic nude mice,eyes,intravenous,0.1 MBq,1 h,U-87 MG glioma xenograft,1.09 ± 0.21 %ID/g
N=C(N)NCCC[C@@H]1NC(=O)[C@H](CCCCNC(=O)CC[C@H](NC(=O)CCOCCOCCOCCOCCNC(=O)CN2CCN(CC(=O)O)CCN(CC(=O)O)CCN(CC(=O)O)CC2)C(=O)NCCCC[C@@H]2NC(=O)[C@@H](Cc3ccccc3)NC(=O)[C@H](CC(=O)O)NC(=O)CNC(=O)[C@H](CCCNC(=N)N)NC2=O)NC(=O)[C@@H](Cc2ccccc2)NC(=O)[C@H](CC(=O)O)NC(=O)CNC1=O [indium-111 labelled],female athymic nude mice,muscle,intravenous,3 µCi,72 h,U-87 MG glioma xenograft,0.24 ± 0.1 %ID/g
N=C(N)NCCC[C@H](NC(=O)[C@H](CCCCN)NC(=O)[C@H](CCC(N)=O)NC(=O)CCOCCOCCOCCNC(=O)CN1CCN(CC(=O)O)CCN(CC(=O)O)CCN(CC(=O)O)CC1)C(=O)N[C@@H](CCCCN)C(=O)N[C@@H](CCCNC(=N)N)C(=O)N[C@@H](CCCCN)C(=O)N[C@@H](CCCCN)C(=O)N[C@@H](CO)C(=O)N[C@@H](CCCNC(=N)N)C(=O)N[C@@H](Cc1ccc(O)cc1)C(=O)N[C@@H](CCCCN)C(=O)N[C@@H](CO)C(=O)O [copper-64 labelled],"male C57BL/6 mice, B16-F10 tumour",brain,intravenous,,60 min,,0.06 ± 0.01 %ID/g
CSCC[C@H](NC(=O)[C@H](CC(C)C)NC(=O)[C@H](Cc1c[nH]cn1)NC(=O)CNC(=O)[C@@H](NC(=O)[C@H](C)NC(=O)[C@H](Cc1c[nH]c2ccccc12)NC(=O)[C@H](CCC(N)=O)NC(=O)CCCCCCCNC(=O)CCC(=O)Nc1ccc(CNC23CNCCNCC(N)(CNCCNC2)CNCCNC3)cc1)C(C)C)C(N)=O [copper-64 labelled],"female SCID mice, PC-3 xenograft",kidney,intravenous,0.6 MBq,1 h,,9.37 ± 0.898 %ID/g
N=C(N)NCCC[C@@H]1NC(=O)[C@H](CCCCNC(=O)CC[C@H](NC(=O)[C@H](CCCCNC(=O)c2ccc(NN)nc2)NC(=O)c2ccc(NN)nc2)C(=O)NCCCC[C@@H]2NC(=O)[C@@H](Cc3ccccc3)NC(=O)[C@H](CC(=O)O)NC(=O)CNC(=O)[C@H](CCCNC(=N)N)NC2=O)NC(=O)[C@@H](Cc2ccccc2)NC(=O)[C@H](CC(=O)O)NC(=O)CNC1=O [technetium-99m labelled],female athymic nude mice,brain,intravenous,0.1 MBq,1 h,U-87 MG glioma xenograft,0.12 ± 0.01 %ID/g
N=C(N)NCCC[C@@H]1NC(=O)[C@H](CCCCNC(=O)CC[C@H](NC(=O)CCOCCOCCOCCOCCNC(=O)CC[C@H](NC(=O)CN2CCN(CC(=O)O)CCN(CC(=O)O)CCN(CC(=O)O)CC2)C(=O)NCCOCCOCCOCCOCCC(=O)N[C@@H](CCC(=O)NCCCC[C@@H]2NC(=O)[C@@H](Cc3ccccc3)NC(=O)[C@H](CC(=O)O)NC(=O)CNC(=O)[C@H](CCCNC(=N)N)NC2=O)C(=O)NCCCC[C@@H]2NC(=O)[C@@H](Cc3ccccc3)NC(=O)[C@H](CC(=O)O)NC(=O)CNC(=O)[C@H](CCCNC(=N)N)NC2=O)C(=O)NCCCC[C@@H]2NC(=O)[C@@H](Cc3ccccc3)NC(=O)[C@H](CC(=O)O)NC(=O)CNC(=O)[C@H](CCCNC(=N)N)NC2=O)NC(=O)[C@@H](Cc2ccccc2)NC(=O)[C@H](CC(=O)O)NC(=O)CNC1=O [indium-111 labelled],female athymic nude mice,brain,intravenous,3 µCi,4 h,U-87 MG glioma xenograft,0.07 ± 0.03 %ID/g
N=C(N)NCCC[C@@H]1NC(=O)[C@H](CCCCNC(=O)CNC(=O)CNC(=O)CNC(=O)CC[C@H](NC(=O)CNC(=O)CNC(=O)CNC(=O)[C@H](CCCCNC(=O)c2ccc(NN)nc2)NC(=O)c2ccc(NN)nc2)C(=O)NCC(=O)NCC(=O)NCC(=O)NCCCC[C@@H]2NC(=O)[C@@H](Cc3ccccc3)NC(=O)[C@H](CC(=O)O)NC(=O)CNC(=O)[C@H](CCCNC(=N)N)NC2=O)NC(=O)[C@@H](Cc2ccccc2)NC(=O)[C@H](CC(=O)O)NC(=O)CNC1=O [technetium-99m labelled],female athymic nude mice,eyes,intravenous,0.1 MBq,1 h,U-87 MG glioma xenograft,0.92 ± 0.19 %ID/g
CC(C)C[C@H](NC(=O)[C@H](Cc1ccc(O)cc1)NC(=O)[C@@H](CCCNC(=N)N)NC(=O)[C@@H](CO)NC(=O)[C@H](Cc1ccccc1)NC(=O)[C@H](CC1CCCCC1)NC(=O)[C@H](CC(=O)O)NC(=O)CCC(C(=O)O)N1CCCN2CCN(CCCN(CC(=O)O)CC2)CC1)C(=O)N[C@@H](Cc1c[nH]c2ccccc12)C(=O)N[C@@H](CO)C(=O)O (stereo partly shown) [copper-64 labelled],female NMRI nude mice,lung,,,1 h p.i.,,4.3 ± 0.7 %ID/g
CSCC[C@H](NC(=O)[C@H](CC(C)C)NC(=O)[C@H](Cc1c[nH]cn1)NC(=O)CNC(=O)[C@@H](NC(=O)[C@H](C)NC(=O)[C@H](Cc1c[nH]c2ccccc12)NC(=O)[C@H](CCC(N)=O)NC(=O)CNC(=O)[C@H](CO)NC(=O)CNC(=O)CCCCCCCNC(=O)CCC(=O)Nc1ccc(CNC23CNCCNCC(N)(CNCCNC2)CNCCNC3)cc1)C(C)C)C(N)=O [copper-64 labelled],"female SCID mice, PC-3 xenograft",bone,intravenous,0.6 MBq,1 h,,1.41 ± 0.335 %ID/g

# A few entries again:
SMILES,host,medium,route,dose,time,setting,tissue uptake
N=C(N)NCCC[C@@H]1NC(=O)[C@H](CCCCNC(=O)CCOCCOCCOCCOCCNC(=O)CC[C@H](NC(=O)CCOCCOCCOCCOCCNC(=O)[C@H](CCCCNC(=O)c2ccc(NN)nc2)NC(=O)c2ccc(NN)nc2)C(=O)NCCOCCOCCOCCOCCC(=O)NCCCC[C@@H]2NC(=O)[C@@H](Cc3ccccc3)NC(=O)[C@H](CC(=O)O)NC(=O)CNC(=O)[C@H](CCCNC(=N)N)NC2=O)NC(=O)[C@@H](Cc2ccccc2)NC(=O)[C@H](CC(=O)O)NC(=O)CNC1=O [technetium-99m labelled],female athymic nude mice,eyes,intravenous,0.1 MBq,1 h,U-87 MG glioma xenograft,1.09 ± 0.21 %ID/g
